# Measurements gathered from unrelated publications.
# Each numbered part is a random draw from the data of one study; scales do not carry over between parts.

# Sample 1 — technique: protein-binding microarray; form: double-stranded DNA, one strand shown; sample: in vitro; tested at: 250 nM; notes: 60-bp whole probe; with: salmon DNA 0.4 mg/ml; reference: random background probes; direction: higher = stronger binding; shared flanks, not repeated: GCCTAGCAC … GTCTTGATTCGCTTGACGCTGCTG
# Target: Interferon regulatory factor 5, full length, phosphomimetic (IRF5, Homo sapiens, UniProt Q13568-2, residues 1-514, K96S/S451D/S453D/S456D/S462D)
Strand,log fluorescence [z-score]
TCAATTTTCCCCTACTGACTGTGCTAG,0.882
TCAACAATTTCAGATTCCACTGTGCTA,1.11
GACGAACAGAGACTGGAGACGTGCTAG,-0.166
TTAGGTCTCGGTCTCGGTTAGTGCTAG,1.06
GACGGTTTACTTATCCTGACGTGCTAG,-0.00974
GACGATATTAGACTGGAGACGTGCTAG,0.475
CTTTTATTTTTTTTATTTATGTGCTAG,1.55
TTAGGTTCCCTTTTCCTTCAGTGCTAG,0.767
ACATCCAAATCCACCATTCAGTGCTAG,0.147
GACGGTTTCGACACGGGGGACGTGCTA,5.41
TCATATCTAAGATTCTAACTGTGCTAG,0.439
TCATTTCTAAAACTCTTACTGTGCTAG,0.944
TTAGGTATCGGTATCGGTTTGTGCTAG,9.5
TCAGGTTTACCAGATCATACTGTGCTA,-0.396
TTAGATATCGGGACTGGATTAGTGCTA,1.23
TTCGGTTTCGGTCTCGGTTAGTGCTAG,10.3
TTAGAACTGAGATTCGATTAGTGCTAG,0.698
TTAGATATCATTATCGATTAGTGCTAG,6.71
TTTCATTTTTTTTCATCATTGTGCTAG,8.92
TTAGGTCTCCTTATCCTTTCGTGCTAG,0.389
GACGGTATTCTTCTCCTGACGTGCTAG,0.266

# Sample 2 — technique: RNA Bind-n-Seq; form: RNA; sample: in vitro; tested at: not given; reference: input RNA pool; direction: higher = stronger binding
# Target: RING finger protein unkempt homolog, zinc fingers 1-6, GST-SBP tag (UNK, Homo sapiens, UniProt Q9C0B0, residues 30-357)
# Sequence of UniProt Q9C0B0 (30-357, looked up): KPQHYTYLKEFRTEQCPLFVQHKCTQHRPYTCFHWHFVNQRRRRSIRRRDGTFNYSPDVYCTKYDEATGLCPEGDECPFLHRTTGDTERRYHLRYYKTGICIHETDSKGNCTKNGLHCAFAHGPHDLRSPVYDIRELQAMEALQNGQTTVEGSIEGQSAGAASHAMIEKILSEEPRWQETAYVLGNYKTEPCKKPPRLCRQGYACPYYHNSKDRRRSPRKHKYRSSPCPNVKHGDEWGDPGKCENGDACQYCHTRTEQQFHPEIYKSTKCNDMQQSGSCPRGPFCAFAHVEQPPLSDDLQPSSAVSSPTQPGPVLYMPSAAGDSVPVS
# Notes: RNA with constant flanks, human-mouse chimeric sites, ends assumed
# Shared flanks, not repeated: GGGAGUUCUACAGUCCGACGAUC … CAACAGAGGAUUGAGCAUCA
Strand,bound/input enrichment [ratio]
CUCAGAGAUGUGGCAUAUCAGUAUGUGAAAAAGGGGGCUCGUAUAUUUUUGGAAGGGAAAGUGGACUAUGGCGAGUACAUGGAUAAAAACAAUGUGAGGCGGCAAGCAACAACAAUCAUA,0.362
UCAACAGACAACAUCAAAUACCAGCCUAAAGGGGGGCAGGUACAAAUUGUUACUAAGAAAAUAGACCUAAGCCAUGUGACAUCCAAAUGUGGCUCUCUGAAGAACAUCCGCCACAGGCCA,0.677
CUGUGACCACAAGAUCCUACCUGAGUGUUCAGAUGGGUUGACUCCCUCUCCUUGCCUGAACCCCCCCCUUUUGUUCCCCCAUCCCCCAGUGUCGGCUGAGAUGUUGCCUCUGCACGGUUC,1.32
UUACCCGAGAACGAGGAUGAAUUGGAGAGCACCAACAGGCGCUACACCAAGAGGGACUGCAGCACUUUCCUCAGAACUAGUGAGACGGGCAUCGUGGACCAGGUCAUGGUCACUCUCAAC,0.171
UACUACUAUGAUGGUGAUAUUGGCAAUUAUUAUUAUGGCCAGGGUCAUCCCAUGAAGCCUCAUAGAAUCCGCAUGACCCAUAACUUGCUGCUAAAUUAUGGUUUAUACCGAAAAAUGGAA,0.182
AGUGUGCAGGAAUUCAUGACCUUUACAAGUCAACUGAUUGUGGAGCGCUCGGGGAAAGGCAGCAGAGCUUCUGUCAAAGAACAAGAGUAUCUUUGCCAUGUCUACGUCCGGAAUGAUAGU,0.178
AAAGAUCUACUGAGGCAAGGCAGCAAAUUUAGGAGAGACAUUUCAACACUAUUAAUAGAGUUAGGAUUCCAAAUUAAAAAGAAAACUAAGACAUUAUACAUCAACAAAGCCAAUGUGUGG,7.28
UUCUAGUAUGAUGGUGAUAUUGGCAAUUAUUAUUAUGGCCAGGGUCAUCCCAUGAAGCCUCAUAGAAUCCGGAUGACCCAUAACUUGCUGCUAAAUUAUGGUUUAUACCGAAAAAUGGAA,0.252
GCUGGAUCUUCUAAGUACCAGUGGGACAUUAUGAAAUCCCUUGGGCUGUCUGAUGAAGACAUAGUGAAGUUUUCUGAAGCAGAGCACUGGCUUGAUUAUUUCCCACCACUGGCCGUUCAG,0.177
GAUAAGAAAAGCUUGUUGGAGACCCGCUUGCAUGUCACUGGUAGAGACCUGAGGUGUCAAAUAGCUGAAACUUUCGGACUUCAAGAAAAUUACAUCAAGAUCGUAAUAAAUAAGAAGCAG,0.461
AGAAUCUUGGGACUGUUUUACUUAAUUGGUCAUUGAUAGCUUAACAAGCAUGGAGAUAAGAUUAGAAAUCUUGACAUCAACAGGUAUUAAGCAGAAAAAACCAUGGCCCAGAGUAUCCUG,0.114

# Sample 3 — technique: RNA Bind-n-Seq; form: RNA; sample: in vitro; tested at: 365 nM; reference: no-protein control; direction: higher = stronger binding
# Target: RNA binding protein fox-1 homolog 2, RRM domain, GST-SBP tag (RBFOX2, Homo sapiens, UniProt O43251-10, residues 100-194)
# Notes: natural RNA segment, single round, ends assumed
# Shared flanks, not repeated: GGGAGUUCUACAGUCCGACGAUC … UGGAAUUCUCGGGUGCCAA
# Residues (chain): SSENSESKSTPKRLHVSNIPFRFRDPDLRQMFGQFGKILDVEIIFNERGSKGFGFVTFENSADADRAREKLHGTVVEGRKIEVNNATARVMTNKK
Strand,RBNS enrichment (R)
GGCGUCUUCACUGCUUUAUCUCAUGAUGCUUGCUUGUAAAACUUGAUUUUAGUUUUUCAUUUCUCAAAUAGGAAUACUACCUUUGAAUUCAAUAAAAUUCACUGCAGGAU,0.799
GUGGCCUCUCUGUGUGCCCACAUGAUGCAAAGGGGUCAUGUACUAUGCCCUGGACAAAGAAGUAUGUUUUGCCUAUGUCCCCAUACCAGGACCUUCUUUCAGAACGAGGG,0.738
UGCCCUGUACUGCCCUCUGACUCCACUGUCACCCGACACCCCUCCCCCAUAUUCAGCCACCUGCUGCACCAGGAAGAGGGUGUGAAAGAUUGUGCAUCUGCAUUCAACUA,0.641
UUUGUAAAAUUGUCUGUGAAAUAUAAACAUUAAUAUAUAAAGAAAAACCUUGAAGUGCUGUAUAGUGAAGUAUAAAUUAAUGUUUUAUUGAUUUGUGAAGAAUUUAAGAC,5.26
UUUCACUCUAUCCCUGCUUCAGUUUUUGCAGAUUAACAGUUCUAUUAGUGAUUUGGAAAGUUAACAGUAAGAAGACUAACUUUUCAAAACAGUUGCAUCUGUAGAUUAAG,0.431
ACAUUUCUAUCACAAUCAUUUUAUGGAAGAUGUGUGAUAAUCUGUUUUUACUGGUAUUAAUAAACACAUACAAUGAAGAAAACAGAUAACAAAUUUUAAGACCAAGGUAA,0.344
ACGUGUCCCUAGCUUAGUAUAAGUAGAUCUGUAGUUGGGCCCAGAGGAAUAUGGCCGGACAGGAGACUUACUUGUGGAGAAGGGACAGACCAGGCCUUCCCUCUAGGGCU,0.557
UCCCCCGCCUGUCAGUCUGGCCCCCUGUGCUUUGCUCCCUGUGCUCAGUGGUCACUUUCCCGCUCCCACUUGGGGCUGGGAGCCGUGCCACCAUCCCCUAGAAGUCCUGU,0.709
CUGAGGGGGAAGACGUGGGACCGGAUGGCCCGUCUGAGGUUUGUGGGGUCACUGUGCAAGCUUCCUUAUGGUUUGAACCUCUUGUCAUGUGAUAAAAGUCUCUGUCUCGA,1.04
AGCAUCCUAAGUGUUAAGGCUGGCUUUAGCAAGGAUUAUGAUCAAUACAACUAUUUUUACUACAAUAAUUAUUUUUCUUCUAUGAGACCCAGAAUCCUGACUCCAUUUGC,0.645
UGGAGGAAAAAGCACCCGUUGAGAACAAACAGACCUCAAUAAACAAGAAUAAUCAUGUGACCAUGGACUCUGCUUCCGCACCUUCUGUUCUUGGUUUCCCAUCUGUGGUC,0.389
GUGGCAAGAACAGUGGGCGUUGGGAGCCUAGCUCCUGCCACAUGGAGCCCCCUCUGCCGGUCGGGCAGCCAGCAGAGGGGGAGUAGCCAAGCUGCUUGUCCUGGGCCUGC,0.518

# Sample 4 — technique: RNA Bind-n-Seq; form: RNA; sample: in vitro; tested at: 200 nM; notes: whole 134-nt RNA, ends assumed; with: 150 mM KCl; reference: input library; direction: higher = stronger binding
# Target: Ras GTPase-activating protein-binding protein 1, full length (G3BP1, Homo sapiens, UniProt Q13283)
# Sequence of UniProt Q13283 (whole entry, looked up): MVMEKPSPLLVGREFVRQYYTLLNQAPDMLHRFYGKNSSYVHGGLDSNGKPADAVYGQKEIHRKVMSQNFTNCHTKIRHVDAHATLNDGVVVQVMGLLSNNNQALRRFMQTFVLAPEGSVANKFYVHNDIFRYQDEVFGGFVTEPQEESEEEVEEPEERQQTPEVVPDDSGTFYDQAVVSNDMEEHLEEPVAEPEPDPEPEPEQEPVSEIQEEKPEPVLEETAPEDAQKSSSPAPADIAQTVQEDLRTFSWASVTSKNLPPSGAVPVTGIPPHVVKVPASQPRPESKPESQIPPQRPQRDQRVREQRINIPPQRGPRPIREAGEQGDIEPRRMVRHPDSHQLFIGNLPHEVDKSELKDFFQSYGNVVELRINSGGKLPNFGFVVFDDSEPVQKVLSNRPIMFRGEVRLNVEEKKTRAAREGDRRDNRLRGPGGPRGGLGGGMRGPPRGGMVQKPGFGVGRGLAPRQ
# Shared flanks, not repeated: GGGAGUUCUACAGUCCGACGAUC … UGGAAUUCUCGGGUGUCAAGG
Strand,log2 enrichment
UGGCCCUGGUGGCAUGCGGUGAGGAAGAGGUGGCCUCAUGGAUCGUGGUGGUCCCGGUGGAAUGUUCAGAGGUGGCCGUGGUGGAGACAG,0.307
CAAGUCCUGUGCUACACAUCGUAUGUACCGAAUCGGGGUGGGGUUUGGGGAGGGGAAAGUAUUAUGUUACGCCGUUCGGAUCUGCACUUC,1.29
CUCAAGUCCUGUGCUACACAUCGUAUGUACCGAAUCGGAAAGGAAAAAGGUGGAAAGUAUUAUGUUACGCCGUUCGGAUCUGCACUUCCA,-0.528
GUCCUGUGCUACACAUCGUAUGUACCGAAUCGGAAAAAAAGGAAAAAGGAAAAAAAGGAAAGUAUUAUGUUACGCCGUUCGGAUCUGCAC,-0.858
CAAGUCCUGUGCUACACAUCGUAUGUACCGAAUCGGGAGGGUUUUUUUGGGUGGGAAAGUAUUAUGUUACGCCGUUCGGAUCUGCACUUC,0.371
CUGUGCUACACAUCGUAUGUACCGAAUCGGUUUUUUUGGGGUUUUUUUGGGUUUUUUUGGGGAAAGUAUUAUGUUACGCCGUUCGGAUCU,-0.984
UAACUUUAGAGGAGGAUCUGAAGGAUAUGGCAGUGGACGUGGAUUUGGGGAUGGCUAUAAUGGGUAUGGAGGAGGACCUGGAGGUGGCAA,0.385
CACAGACAACACGCACCCACACAGACACAGAGGGAAGGGGUUGGGAUGGGGACAGGGUGCACAGCAGGGCGGGAAAGGACCCCAGCCCCU,1.99
UCCUCAAGUCCUGUGCUACACAUCGUAUGUACCGAAUCGGGCGGGGCGGCGGAAAGUAUUAUGUUACGCCGUUCGGAUCUGCACUUCCAG,-0.119
UGGCCCUGGUGGCAUGCGGGGAGUAAGAGGUGGCCUCAUGGAUCGUGGUGGUCCCGGUGGAAUGUUCAGAGGUGGCCGUGGUGGAGACAG,0.192
UGGCCCUGGUCGCAUGCGGGGAGGAAGAGGUGGCCUCAUGGAUCGUGGUGGUCCCGGUGGAAUGUUCAGAGGUGGCCGUGGUGGAGACAG,0.133
CUCAAGUCCUGUGCUACACAUCGUAUGUACCGAAUCGGCCCGGGCCCGGCCCGGAAAGUAUUAUGUUACGCCGUUCGGAUCUGCACUUCC,-0.456
CCACCAUGACCCCUGACGGUCUGGCUGUGACCCCAACGCCGGUGCCCGUGGUCGGGAGCCAGAUGACCAGACAAGCCCGGCGCCUCUACG,0.773
GUCCUGUGCUACACAUCGUAUGUACCGAAUCAAAUUUAAAUUUUUAAAUUUUUUUAAAAAAGUAUUAUGUUACGCCGUUCGGAUCUGCAC,-1.63

# Repeated from above (sample 2):
Strand,bound/input enrichment [ratio]
UUCUAGUAUGAUGGUGAUAUUGGCAAUUAUUAUUAUGGCCAGGGUCAUCCCAUGAAGCCUCAUAGAAUCCGGAUGACCCAUAACUUGCUGCUAAAUUAUGGUUUAUACCGAAAAAUGGAA,0.252
AGUGUGCAGGAAUUCAUGACCUUUACAAGUCAACUGAUUGUGGAGCGCUCGGGGAAAGGCAGCAGAGCUUCUGUCAAAGAACAAGAGUAUCUUUGCCAUGUCUACGUCCGGAAUGAUAGU,0.178
UCAACAGACAACAUCAAAUACCAGCCUAAAGGGGGGCAGGUACAAAUUGUUACUAAGAAAAUAGACCUAAGCCAUGUGACAUCCAAAUGUGGCUCUCUGAAGAACAUCCGCCACAGGCCA,0.677
AAAGAUCUACUGAGGCAAGGCAGCAAAUUUAGGAGAGACAUUUCAACACUAUUAAUAGAGUUAGGAUUCCAAAUUAAAAAGAAAACUAAGACAUUAUACAUCAACAAAGCCAAUGUGUGG,7.28
GCUGGAUCUUCUAAGUACCAGUGGGACAUUAUGAAAUCCCUUGGGCUGUCUGAUGAAGACAUAGUGAAGUUUUCUGAAGCAGAGCACUGGCUUGAUUAUUUCCCACCACUGGCCGUUCAG,0.177
UACUACUAUGAUGGUGAUAUUGGCAAUUAUUAUUAUGGCCAGGGUCAUCCCAUGAAGCCUCAUAGAAUCCGCAUGACCCAUAACUUGCUGCUAAAUUAUGGUUUAUACCGAAAAAUGGAA,0.182
CUGUGACCACAAGAUCCUACCUGAGUGUUCAGAUGGGUUGACUCCCUCUCCUUGCCUGAACCCCCCCCUUUUGUUCCCCCAUCCCCCAGUGUCGGCUGAGAUGUUGCCUCUGCACGGUUC,1.32
UUACCCGAGAACGAGGAUGAAUUGGAGAGCACCAACAGGCGCUACACCAAGAGGGACUGCAGCACUUUCCUCAGAACUAGUGAGACGGGCAUCGUGGACCAGGUCAUGGUCACUCUCAAC,0.171
CUCAGAGAUGUGGCAUAUCAGUAUGUGAAAAAGGGGGCUCGUAUAUUUUUGGAAGGGAAAGUGGACUAUGGCGAGUACAUGGAUAAAAACAAUGUGAGGCGGCAAGCAACAACAAUCAUA,0.362
